Results from different studies.
A part holds a random share of what one study measured. Several values in a cell are separate wells, animals, samples, runs or records.
Sequence of UniProt P19784 (whole entry, looked up): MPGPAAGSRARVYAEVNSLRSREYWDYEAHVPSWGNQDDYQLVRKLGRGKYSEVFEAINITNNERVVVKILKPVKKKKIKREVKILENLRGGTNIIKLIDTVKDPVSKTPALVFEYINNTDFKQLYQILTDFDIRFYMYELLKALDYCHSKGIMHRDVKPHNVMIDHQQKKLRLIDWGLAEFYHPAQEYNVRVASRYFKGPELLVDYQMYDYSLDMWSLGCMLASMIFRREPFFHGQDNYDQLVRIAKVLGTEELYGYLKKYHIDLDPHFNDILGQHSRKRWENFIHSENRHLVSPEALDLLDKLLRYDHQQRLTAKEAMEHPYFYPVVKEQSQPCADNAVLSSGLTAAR
Sequence of UniProt P10721 (whole entry, unmodified, looked up): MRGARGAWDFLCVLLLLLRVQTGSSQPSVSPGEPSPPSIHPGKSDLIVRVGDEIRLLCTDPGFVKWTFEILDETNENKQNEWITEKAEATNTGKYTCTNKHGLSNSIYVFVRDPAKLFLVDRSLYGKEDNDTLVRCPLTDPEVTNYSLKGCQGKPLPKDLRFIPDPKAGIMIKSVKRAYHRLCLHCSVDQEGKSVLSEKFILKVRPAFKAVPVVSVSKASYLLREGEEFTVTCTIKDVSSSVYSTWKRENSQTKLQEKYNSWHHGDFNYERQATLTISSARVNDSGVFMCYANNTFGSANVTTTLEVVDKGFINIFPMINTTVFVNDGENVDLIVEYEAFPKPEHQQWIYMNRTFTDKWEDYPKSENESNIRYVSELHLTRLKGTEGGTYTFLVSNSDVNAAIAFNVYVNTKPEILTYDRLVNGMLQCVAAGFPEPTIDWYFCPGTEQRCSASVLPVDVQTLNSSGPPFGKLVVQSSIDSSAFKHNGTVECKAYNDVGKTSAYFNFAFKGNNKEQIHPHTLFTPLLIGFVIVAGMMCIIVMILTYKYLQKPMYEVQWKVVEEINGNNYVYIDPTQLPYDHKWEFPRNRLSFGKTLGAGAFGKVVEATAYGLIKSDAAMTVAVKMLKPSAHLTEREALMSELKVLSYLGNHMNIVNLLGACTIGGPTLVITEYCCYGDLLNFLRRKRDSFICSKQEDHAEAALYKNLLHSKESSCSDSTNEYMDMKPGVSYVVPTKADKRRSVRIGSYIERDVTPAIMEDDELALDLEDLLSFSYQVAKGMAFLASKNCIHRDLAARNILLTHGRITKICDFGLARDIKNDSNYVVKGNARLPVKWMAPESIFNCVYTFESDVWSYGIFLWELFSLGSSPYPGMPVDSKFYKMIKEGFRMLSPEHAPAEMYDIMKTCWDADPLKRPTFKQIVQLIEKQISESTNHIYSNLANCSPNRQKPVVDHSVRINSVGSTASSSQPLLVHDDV
Sequence of UniProt Q9H422 (whole entry, looked up): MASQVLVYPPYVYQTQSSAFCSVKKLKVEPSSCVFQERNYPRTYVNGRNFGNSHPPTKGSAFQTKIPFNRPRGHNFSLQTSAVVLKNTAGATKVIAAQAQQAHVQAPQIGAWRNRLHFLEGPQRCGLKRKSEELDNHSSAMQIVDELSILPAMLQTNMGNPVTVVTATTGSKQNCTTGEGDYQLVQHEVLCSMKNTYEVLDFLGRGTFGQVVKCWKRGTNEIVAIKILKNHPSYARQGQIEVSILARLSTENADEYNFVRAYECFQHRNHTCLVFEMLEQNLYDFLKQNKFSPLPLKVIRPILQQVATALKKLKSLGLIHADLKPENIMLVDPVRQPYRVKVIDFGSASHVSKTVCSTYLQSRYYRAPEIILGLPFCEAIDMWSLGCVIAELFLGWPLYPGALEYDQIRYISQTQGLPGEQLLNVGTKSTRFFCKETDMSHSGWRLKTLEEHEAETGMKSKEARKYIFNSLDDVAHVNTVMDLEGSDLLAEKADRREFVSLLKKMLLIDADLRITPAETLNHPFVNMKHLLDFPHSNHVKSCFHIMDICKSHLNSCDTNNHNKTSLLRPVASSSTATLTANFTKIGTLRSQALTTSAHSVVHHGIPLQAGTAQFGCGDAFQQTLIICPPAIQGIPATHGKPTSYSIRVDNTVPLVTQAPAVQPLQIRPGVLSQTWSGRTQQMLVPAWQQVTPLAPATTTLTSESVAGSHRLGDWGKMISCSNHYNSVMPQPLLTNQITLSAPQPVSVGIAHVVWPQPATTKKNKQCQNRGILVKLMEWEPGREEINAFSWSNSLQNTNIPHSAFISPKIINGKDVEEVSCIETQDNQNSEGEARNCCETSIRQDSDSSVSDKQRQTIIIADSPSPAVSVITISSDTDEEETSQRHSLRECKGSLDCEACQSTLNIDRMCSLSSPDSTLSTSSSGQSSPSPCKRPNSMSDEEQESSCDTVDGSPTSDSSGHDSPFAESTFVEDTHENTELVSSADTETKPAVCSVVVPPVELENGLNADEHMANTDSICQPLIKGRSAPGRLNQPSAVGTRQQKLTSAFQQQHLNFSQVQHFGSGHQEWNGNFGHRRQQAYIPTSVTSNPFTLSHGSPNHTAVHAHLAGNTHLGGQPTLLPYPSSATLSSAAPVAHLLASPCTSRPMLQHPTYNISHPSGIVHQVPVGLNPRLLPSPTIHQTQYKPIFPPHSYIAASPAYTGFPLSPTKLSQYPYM
Sequence of UniProt P50613 (whole entry, looked up): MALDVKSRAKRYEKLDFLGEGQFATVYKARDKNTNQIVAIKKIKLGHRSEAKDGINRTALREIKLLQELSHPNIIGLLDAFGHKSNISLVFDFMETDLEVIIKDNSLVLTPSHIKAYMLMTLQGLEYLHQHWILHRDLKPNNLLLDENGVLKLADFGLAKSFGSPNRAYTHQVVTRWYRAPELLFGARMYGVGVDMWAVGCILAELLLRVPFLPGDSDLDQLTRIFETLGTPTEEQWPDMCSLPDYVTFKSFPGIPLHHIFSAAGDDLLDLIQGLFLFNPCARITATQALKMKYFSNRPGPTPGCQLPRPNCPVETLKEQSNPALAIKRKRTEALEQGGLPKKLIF
Sequence of UniProt Q13464 (whole entry, looked up): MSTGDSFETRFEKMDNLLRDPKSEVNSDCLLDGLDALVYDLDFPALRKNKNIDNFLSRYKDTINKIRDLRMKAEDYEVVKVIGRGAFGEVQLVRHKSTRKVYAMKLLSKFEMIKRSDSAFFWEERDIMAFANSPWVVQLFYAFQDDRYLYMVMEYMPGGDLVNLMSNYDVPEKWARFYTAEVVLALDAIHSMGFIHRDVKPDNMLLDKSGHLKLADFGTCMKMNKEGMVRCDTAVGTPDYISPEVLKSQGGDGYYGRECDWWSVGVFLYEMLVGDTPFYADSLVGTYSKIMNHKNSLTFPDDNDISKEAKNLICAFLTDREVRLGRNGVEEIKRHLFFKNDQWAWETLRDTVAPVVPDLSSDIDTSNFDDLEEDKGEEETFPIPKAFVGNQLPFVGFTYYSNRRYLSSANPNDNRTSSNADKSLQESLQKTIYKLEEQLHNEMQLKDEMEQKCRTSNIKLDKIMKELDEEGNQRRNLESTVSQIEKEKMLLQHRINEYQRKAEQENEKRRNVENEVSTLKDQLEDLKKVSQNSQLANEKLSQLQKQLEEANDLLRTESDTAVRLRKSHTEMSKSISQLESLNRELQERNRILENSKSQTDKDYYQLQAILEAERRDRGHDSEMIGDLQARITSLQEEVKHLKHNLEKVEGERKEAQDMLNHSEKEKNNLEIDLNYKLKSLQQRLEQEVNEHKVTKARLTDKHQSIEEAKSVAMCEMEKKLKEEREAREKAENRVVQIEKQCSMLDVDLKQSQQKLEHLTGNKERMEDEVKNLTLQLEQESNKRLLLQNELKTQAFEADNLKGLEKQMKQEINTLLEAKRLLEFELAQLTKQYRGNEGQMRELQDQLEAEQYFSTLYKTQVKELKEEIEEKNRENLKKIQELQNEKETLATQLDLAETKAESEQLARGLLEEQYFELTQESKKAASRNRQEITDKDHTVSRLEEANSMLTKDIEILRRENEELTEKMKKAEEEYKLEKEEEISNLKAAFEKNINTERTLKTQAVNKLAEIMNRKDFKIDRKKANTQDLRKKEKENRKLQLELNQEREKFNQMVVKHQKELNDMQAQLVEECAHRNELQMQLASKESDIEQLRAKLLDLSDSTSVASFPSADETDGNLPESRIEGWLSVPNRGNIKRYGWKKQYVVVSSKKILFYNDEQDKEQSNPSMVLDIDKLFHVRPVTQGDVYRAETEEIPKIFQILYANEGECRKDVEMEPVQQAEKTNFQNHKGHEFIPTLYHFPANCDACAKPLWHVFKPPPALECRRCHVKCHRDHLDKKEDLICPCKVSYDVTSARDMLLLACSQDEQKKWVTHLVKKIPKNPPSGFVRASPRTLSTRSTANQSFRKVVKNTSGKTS
Sequence of UniProt Q8IY84 (whole entry, looked up): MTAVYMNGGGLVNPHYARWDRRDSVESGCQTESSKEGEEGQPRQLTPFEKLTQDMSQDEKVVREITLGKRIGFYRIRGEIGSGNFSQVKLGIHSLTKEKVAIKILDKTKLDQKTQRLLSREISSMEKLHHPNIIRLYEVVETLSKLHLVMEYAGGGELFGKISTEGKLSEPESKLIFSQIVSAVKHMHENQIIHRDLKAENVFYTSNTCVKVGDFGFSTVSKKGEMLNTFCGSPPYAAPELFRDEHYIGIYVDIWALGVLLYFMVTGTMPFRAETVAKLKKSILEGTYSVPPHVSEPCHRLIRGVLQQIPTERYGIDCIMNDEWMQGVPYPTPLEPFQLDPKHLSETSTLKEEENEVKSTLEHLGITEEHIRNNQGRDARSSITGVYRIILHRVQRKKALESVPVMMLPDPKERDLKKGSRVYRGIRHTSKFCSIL

Study 1 — read-out: cell-free assay; technique: competition with immobilised ligand; concentration: 0.1 µM; quantity: remaining binding
Compound: Cn1nc(C(=O)NCc2ccc(C(=O)O)cc2)cc1-c1ccc2[nH]ccc2c1
FLT3 (Homo sapiens, UniProt P36888, ITD): 91%
CSNK2A2 (Homo sapiens, UniProt P19784): 100%
HCK (Homo sapiens, UniProt P08631): 81%
Tyrosine-protein kinase ABL1, phosphorylated (ABL1, Homo sapiens, UniProt P00519, M351T): 75%
MAP2K5 (Homo sapiens, UniProt Q13163): 63%
NIM1K (Homo sapiens, UniProt Q8IY84): 78%
DCLK3 (Homo sapiens, UniProt Q9C098): 96%
ACVR1 (Homo sapiens, UniProt Q04771): 99%
ROCK1 (Homo sapiens, UniProt Q13464): 93%
TAOK1 (Homo sapiens, UniProt Q7L7X3): 91%
CDK17 (Homo sapiens, UniProt Q00537): 77%
SRPK1 (Homo sapiens, UniProt Q96SB4): 33%
TAOK3 (Homo sapiens, UniProt Q9H2K8): 83%
CDK7 (Homo sapiens, UniProt P50613): 100%
KIT (Homo sapiens, UniProt P10721, V559D/V654A): 95%
PIK3CA (Homo sapiens, UniProt P42336, H1047L): 100%
CDK2 (Homo sapiens, UniProt P24941): 91%
MST1R (Homo sapiens, UniProt Q04912): 100%
PIK3C2G (Homo sapiens, UniProt O75747): 100%
EPHA5 (Homo sapiens, UniProt P54756): 92%
EGFR (Homo sapiens, UniProt P00533, del747-752/P753S): 100%
PIP5K1A (Homo sapiens, UniProt Q99755): 63%
MAPK7 (Homo sapiens, UniProt Q13164): 87%
KIT (Homo sapiens, UniProt P10721): 97%
NTRK2 (Homo sapiens, UniProt Q16620): 92%

Study 2 — technique: Incucyte 3D growth; concentration: 30 µM; reading: higher = more growth; quantity: spheroid area
Compound: CC(C)(C(=O)O)[C@H](NC(=O)Cc1cccc(I)c1)c1ccc2oc(=O)[nH]c2c1
NCI-H1437; 66 h: 2.41e+07 a.u. and 2.77e+07 a.u. and 2.74e+07 a.u. and 2.95e+07 a.u. and 2.81e+07 a.u.
MEL-JUSO; 342.52 h: 5.8e+07 a.u. and 4.04e+07 a.u. and 3.39e+07 a.u. and 3.63e+07 a.u. and 4.67e+07 a.u. and 3.76e+07 a.u.
MEL-JUSO; 54.52 h: 1.24e+07 a.u. and 1.35e+07 a.u. and 1.3e+07 a.u. and 1.27e+07 a.u. and 8.56e+06 a.u. and 1.61e+07 a.u.
MEL-JUSO; 474.52 h: 2.18e+07 a.u. and 2.52e+07 a.u. and 3.6e+07 a.u. and 2.33e+07 a.u. and 5.4e+07 a.u. and 7.51e+07 a.u.
NCI-H358; 12 h: 3.36e+06 a.u. and 3.23e+06 a.u. and 3.04e+06 a.u. and 3.44e+06 a.u. and 3.63e+06 a.u. and 3.05e+06 a.u.
KP-4; 60 h: 1.51e+07 a.u. and 1.27e+07 a.u. and 1.45e+07 a.u. and 1.35e+07 a.u. and 1.65e+07 a.u. and 1.55e+07 a.u.
IPC-298; 204 h: 2.27e+07 a.u. and 3.07e+07 a.u. and 3.1e+07 a.u. and 2.67e+07 a.u. and 2.77e+07 a.u. and 3.76e+07 a.u.
KP-4; 276 h: 1e+08 a.u. and 7e+07 a.u. and 4.88e+07 a.u. and 2.71e+07 a.u. and 6.76e+07 a.u. and 9.43e+07 a.u.
A375; 174 h: 8.98e+07 a.u. and 1.02e+08 a.u. and 1.01e+08 a.u. and 1.08e+08 a.u. and 1.04e+08 a.u. and 1.24e+08 a.u.
IPC-298; 174 h: 2.74e+07 a.u. and 3.41e+07 a.u. and 2.13e+07 a.u. and 2.73e+07 a.u. and 2.64e+07 a.u. and 3e+07 a.u.
NCI-H1437; 204 h: 3.35e+07 a.u. and 8.05e+07 a.u. and 4.73e+07 a.u. and 6.9e+07 a.u. and 8.06e+07 a.u. and 5.1e+07 a.u.
IPC-298; 186 h: 3.05e+07 a.u. and 2.81e+07 a.u. and 2.68e+07 a.u. and 3.6e+07 a.u. and 2.16e+07 a.u. and 2.6e+07 a.u.

Study 3 — cell line: mouse MPNST tumor cells; technique: high-content immunofluorescence imaging; measured: nuclear SOX9; concentration: 10 µM; time: 12 h; notes: mean of 2 replicates; baseline: DMSO control; reading: higher = more nuclear SOX9; quantity: nuclear SOX9 intensity
Cn1c(=O)c2c(ncn2CC(=O)O)n(C)c1=O: 106 % of DMSO
CCCC(CCC)C(=O)O: 89.5 % of DMSO and 87.4 % of DMSO and 102 % of DMSO
COC(=O)CCc1ccc(OCC(O)CNC(C)C)cc1 (stereo not drawn): 105 % of DMSO
COC(=O)Nc1nc2cc(C(=O)c3ccc(F)cc3)ccc2[nH]1: 210 % of DMSO
CCCCN(CCCC)CCCOC(=O)c1ccc(N)cc1: 100 % of DMSO
COc1ccc(OC)c(C2C(C#N)=C(N)Oc3n[nH]c(-c4ccc5ccccc5c4)c32)c1 (stereo not drawn): 100 % of DMSO
N=C(N=C(N)N)N1CCOCC1: 92.5 % of DMSO
CCCCCCN(CCCCCC)C(=O)Cc1c(-c2ccc(F)cc2)[nH]c2ccccc12: 137 % of DMSO
Cc1cccc(S(=O)(=O)N(C)[C@H](C)CCN2CCC(C)CC2)c1: 122 % of DMSO
CC(C)(C)c1ccc(OC2CCCCC2O)cc1 (stereo not drawn): 99.5 % of DMSO
COC(=O)[C@H](c1ccccc1Cl)N1CCc2sccc2C1: 114 % of DMSO and 112 % of DMSO
OC(c1ccccc1)C1CCN(CCc2ccccc2)CC1 (stereo not drawn): 114 % of DMSO
Cn1c(=O)c2[nH]c(C3CCCC3)nc2n(C)c1=O: 93.3 % of DMSO

Study 4 — read-out: enzyme activity; action: inhibitor; concentration: 0.5 µM; baseline: control; quantity: remaining activity
Compound: COc1cc(Nc2c(C#N)cnc3cc(OCCCN4CCN(C)CC4)c(OC)cc23)c(Cl)cc1Cl
HIPK3 (Homo sapiens, UniProt Q9H422): 93.5%
MAP3K8 (Homo sapiens, UniProt P41279): 101%
PRKD1 (Homo sapiens, UniProt Q15139): 43.7%
PKN2 (Homo sapiens, UniProt Q16513): 105%
ROS1 (Homo sapiens, UniProt P08922): 95.4%
DYRK4 (Homo sapiens, UniProt Q9NR20): 97.9%
Aurora kinase A (AURKA, Homo sapiens, UniProt O14965): 86%
RET (Homo sapiens, UniProt P07949): 18.9%
CAMK1G (Homo sapiens, UniProt Q96NX5): 82.7%
MAP3K2 (Homo sapiens, UniProt Q9Y2U5): 23.5%
BRSK1 (Homo sapiens, UniProt Q8TDC3): 97.5%
CSNK2A2 (Homo sapiens, UniProt P19784): 108%
PTK2B (Homo sapiens, UniProt Q14289): 32.6%
Cyclin-dependent kinase 2, with cyclin A (CDK2, Homo sapiens, UniProt P24941): 91.1%
GRK5 (Homo sapiens, UniProt P34947): 109%
ROCK2 (Homo sapiens, UniProt O75116): 85%

Excerpt of the above (study 1):
PIP5K1A (Homo sapiens, UniProt Q99755): 63%
PIK3C2G (Homo sapiens, UniProt O75747): 100%
FLT3 (Homo sapiens, UniProt P36888, ITD): 91%
KIT (Homo sapiens, UniProt P10721): 97%
